Measurements collected from several papers.
A part holds a random share of what one study measured. Substitutions count along the parent as printed.

Set 1
Target: CEBPB, bZIP domain (human)
Method: DHFR protein complementation
Sample: yeast
Setting: single substitutions, most at no-binding floor
Baseline: wild-type JUN-FOS pair
Direction: higher = stronger binding
Parent: JUN, bZIP domain (human); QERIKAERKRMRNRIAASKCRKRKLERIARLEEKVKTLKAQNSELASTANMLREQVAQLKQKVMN; partner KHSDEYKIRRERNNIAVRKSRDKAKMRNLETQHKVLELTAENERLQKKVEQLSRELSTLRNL
Change | binding fitness [natural log]
V56Q | -1.47
T48C | -1.09
K39W | -1.43
N42V | -1.49
V56G | -1.5
E32P | -1.55
L52S | -1.59
A57G | -1.38
L38Q | -1.43
L31E | -1.45
L31G | -1.49
V35G | -1.45
A57N | -1.21

Set 2
Target: RNA binding protein fox-1 homolog 2, RRM domain, GST-SBP tag (RBFOX2, Homo sapiens, UniProt O43251-10, residues 100-194)
Method: RNA Bind-n-Seq
Molecule type: RNA
Sample: in vitro
Tested at: 365 nM
Setting: natural RNA segment, single round, ends assumed
Baseline: no-protein control
Direction: higher = stronger binding
All sequences stand within: GGGAGUUCUACAGUCCGACGAUC … UGGAAUUCUCGGGUGCCAA
Target sequence (chain): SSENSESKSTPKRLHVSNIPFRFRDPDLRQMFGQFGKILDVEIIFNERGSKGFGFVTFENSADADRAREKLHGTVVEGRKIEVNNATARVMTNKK
Sequence | RBNS enrichment (R)
GCCCGUCCGGUAAACUAUGGUCCUGGGUGCCCAGUUGUGCAGUAGGGGGAGAAGCUGAAAGAUAAGGACUCAACCCAAGUCAUUUGUCUUCUUUCCUGCUAUGCUGUGAG | 0.238
GCAUCAGGAGUCCAAACCUCUGAGGUCUGAUCUCUGCUCUGUCAAGGACUUUCGGCAAGUCUCGUGACCUCUGGCUCUUUCACUUCCUCCCCACCUGCCAAAUGGGGAUA | 0.227
UACAUCUGAGUUCAAAUGUCUUCCCAGGCUCAGGGACCUCCAUUCCUUGAGAUUGUCUUGGCAUGGCCCAGCCCUGCCUCAUGGGAUGGACAAUGCAUGGGGUGGUCUUU | 0.158
CCAGGUUGGAGCUUAAAUUGCUGUUGGCUCCUGCCUGGUGGAACAAGGGGGUCAUAGAAACCAGGGCUGAUGGGCACCCCCCAGCCCCUGGGAGCUCUGCUCAUGACCGC | 0.408
AUCAAACUCUUCACUUUUUUGACUCAAGUGUUGUUGUUCAGUCUCUCGCGUGUCAAUGUGGUCAUGGUUCAUGAAACCGGACCCUCAAGAUGGAUGAUUGCUUUUAACUA | 0.345
UGGCCAGCUGAGCCCAGGUUACUUGGUACCCACUCUGCCUUGAGCCUUCCUUCCCCCAGGGCCUAUUUCUUGUGUGGAUCACGUGGCAGUAGCAUGUUGCAGUCAGACGU | 4.87
GAUCUCCUGCCUCACACACCUGUUUGUGACUUUCCCAGCAAGUAGCUCUGUUACCCUGAGAACACCAGAGCUCCCCUUGUCUCCCUCUCUCUCUCAUCCAGGGUCCCUGC | 0.852
AGUUCUUUGUAUGAUGCACUUUGGACCCACCCUCUCCUCAUGUCACUACUUUGCACACUUCCUCCAUGCUCUCACUUUGAAGGAAGCCUGGAUGAGGCUAGUGACUCUGU | 0.602

Set 3
Target: CCNE2, cyclin fold, Cln2 fusion (human)
Method: yeast growth competition, sequencing
Sample: yeast
Setting: strong parent motif
Baseline: not given
Direction: higher = stronger binding
Parent: PPP1R3F docking peptide (human); VAPRRVLFADEAL; partner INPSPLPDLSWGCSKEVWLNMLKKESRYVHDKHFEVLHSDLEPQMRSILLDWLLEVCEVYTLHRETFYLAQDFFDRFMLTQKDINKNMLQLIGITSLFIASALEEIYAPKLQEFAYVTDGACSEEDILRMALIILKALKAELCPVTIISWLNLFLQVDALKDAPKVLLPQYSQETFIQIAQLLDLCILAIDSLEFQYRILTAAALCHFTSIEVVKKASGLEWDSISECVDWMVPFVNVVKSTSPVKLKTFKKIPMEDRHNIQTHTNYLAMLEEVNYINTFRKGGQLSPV
Change | normalised enrichment score
VAPRRVLFADAAL [E11A] | 1.83
VAPRRVLAADEAL [F8A] | -0.0486
VAPRRVLFAAEAL [D10A] | 1.14
VAPRKVLLADEAL [R5K F8L] | 0.211
VAARRVLFADEAL [P3A] | 3.43
VAPRRVAFADEAL [L7A] | 0.599

Set 4
Target: Histone acetyltransferase KAT6A, winged helix 1, GST fusion (KAT6A, Homo sapiens, UniProt Q92794, residues 1-85)
Method: protein binding microarray
Molecule type: double-stranded DNA, one strand shown
Sample: in vitro
Tested at: not given
Setting: 8-mer, flanks averaged, mean of 2 arrays, mostly near background
Baseline: not given
Direction: higher = stronger binding
Target sequence (chain): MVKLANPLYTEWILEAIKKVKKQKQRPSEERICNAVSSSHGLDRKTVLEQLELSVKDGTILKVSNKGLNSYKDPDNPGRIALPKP
Sequence | E-score
CGGGGCAG | 0.271
CCCATAAC | -0.0581
AAAGAAGG | -0.168
ACATTCCA | -0.14
GGAAATAA | -0.131
CAGGCTCG | 0.0677
GGCACCCA | -0.00821
GGGGGAAA | 0.0185
GCACCGGA | 0.288
CCCATCGG | 0.103
AGACACTG | -0.169
AACCGGGT | 0.295
AAAGGAGA | -0.0949
CTATAATC | -0.116
AATTAGAC | -0.311
ATAGATCC | 0.0119
AATTGAGG | -0.177
ACTTCGAG | -0.166
CGTCACGC | 0.273
AATCATAT | 0.0276
GAGTGTAA | -0.154
CGACATAG | -0.0731
CCATGTTC | -0.0851
AACACGGA | 0.292
GTGCGCCA | 0.301

Set 5
Target: ABI1, truncated, D143A, DHFR fusion (Arabidopsis thaliana)
Method: DHFR PCA, deep sequencing
Sample: yeast
Setting: methotrexate growth selection, single substitutions
With: (+)-ABA 0 µM
Baseline: wild-type fitted maximum
Direction: higher = stronger binding
Parent: PYL1, truncated, DHFR fusion (Arabidopsis thaliana); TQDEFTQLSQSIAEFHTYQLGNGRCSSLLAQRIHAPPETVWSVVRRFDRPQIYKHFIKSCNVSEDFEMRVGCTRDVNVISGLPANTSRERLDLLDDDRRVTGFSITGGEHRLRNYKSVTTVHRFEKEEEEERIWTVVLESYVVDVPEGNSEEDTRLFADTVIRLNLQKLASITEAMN
Change | relative binding score
A175E | 22.6%
S117F | -0.872%
I52G | -2.55%
I172T | 4.03%
V44K | -0.365%
L28H | -8.28%
R32F | 16.4%
D153P | -11.3%
E64D | 37.6%
E127G | 35.9%
N149T | 50.3%
K126G | 47.7%
Y141R | -5.93%
R88C | 11.1%
R74T | -3.34%
A13M | 13%
M176W | 3.8%
R24K | 44.1%
